# Published values collected from several papers.
# Every numbered part comes from another study and shows a few of its results, in no order.

# Series 1
# Target: Sal-like protein 4, full length isoform B (SALL4, Homo sapiens, UniProt Q9UJQ4-2, residues 1-616)
# Technique: universal PBM
# Molecule type: double-stranded DNA, one strand shown
# Matrix: in vitro
# Concentration: not given
# Setting: 8-mer, flanks averaged, mean of replicates
# Direction: higher = stronger binding
Oligonucleotide,E-score
GATTAATC,0.209
AGACGAAA,0.182
AAAGTCAA,0.0169
ACAGCAGC,-0.157
AGCGCAAA,-0.0184
GGTACACA,-0.0311
GGAGGCCC,-0.348
GCCAACGC,-0.218
AGATGTCC,-0.0862
TCGATTAA,0.292
CATGGGGC,-0.257
CTATACGC,0.0178
AAAGCAAC,-0.00552
GAGTGACC,-0.255
TACCAGAA,0.0695
ATTGTTTG,0.231
GCTCTTTA,-0.138
TCGCCTCA,0.0237
CCCCGGGA,-0.294
TGAAGCCA,0.0858
AGCTGAGA,-0.0972
AGGCGGTC,-0.211
CCCGCGTA,-0.156
CCAGAGAA,-0.0142
ACAGTCAC,-0.0796

# Series 2
# Target: Histone acetyltransferase KAT6A, winged helix 1, GST fusion (KAT6A, Homo sapiens, UniProt Q92794, residues 1-85)
# Technique: protein binding microarray
# Molecule type: double-stranded DNA, one strand shown
# Matrix: in vitro
# Concentration: not given
# Setting: 8-mer, flanks averaged, mean of 2 arrays, mostly near background
# Reference: not given
# Direction: higher = stronger binding
# Residues (chain): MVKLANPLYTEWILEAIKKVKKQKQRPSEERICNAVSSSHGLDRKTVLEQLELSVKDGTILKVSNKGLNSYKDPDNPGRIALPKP
Oligonucleotide,E-score
CAGCTCCC,-0.18
CATCAGAA,-0.157
ACTGTAAG,-0.0573
AAAAGTCC,-0.0463
ACTTCAAT,-0.0741
CCAGGACC,-0.126
TCCATACA,-0.162
AGCGGCAC,0.368
CGGTTCAC,-0.0142
CGACTACA,-0.172
AGTCCGCC,0.169
CTCTCATC,-0.334
AGTGGCGA,0.00416
ATGGGGGA,-0.0624
AGCAGAGA,-0.237
CTCACGGC,0.375
CAACTAGG,-0.0799
GTGTACGA,0.0754
GTACAGTA,0.0369

# Series 3
# Target: RNA binding protein fox-1 homolog 2, RRM domain, GST-SBP tag (RBFOX2, Homo sapiens, UniProt O43251-10, residues 100-194)
# Technique: RNA Bind-n-Seq
# Molecule type: RNA
# Matrix: in vitro
# Concentration: 365 nM
# Setting: natural RNA segment, single round, ends assumed
# Reference: no-protein control
# Direction: higher = stronger binding
# Residues (chain): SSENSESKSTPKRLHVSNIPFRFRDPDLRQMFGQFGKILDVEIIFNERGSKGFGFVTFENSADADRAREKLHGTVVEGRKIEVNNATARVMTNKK
Oligonucleotide,RBNS enrichment (R)
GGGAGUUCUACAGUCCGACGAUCACAGAUUAUCUUUGGGCCUUUUCAUUAGAAAGCUGUUUGUUUGUCCCCCUGUUGGUACAUUUGGUUACCUCAUUUUGCCGUUUCAGAUUGUGAAAGCUCACAGGGGUGUUUGGAAUUCUCGGGUGCCAA,0.331
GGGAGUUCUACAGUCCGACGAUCCUGCAGUCAGUGCUAAUCCGUCGUUCUUAAUCAGGAGUUCUGCCAGGUUUAAGGUCACCUGCACUCCCAGCCAAGUGGUGAUGUAUGCCUCCCACUCUCUGCAAGGUUUUUGGAAUUCUCGGGUGCCAA,0.875
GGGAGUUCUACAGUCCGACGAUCUGAUUACAACCUUUAAAGCAAGAGGAGGCGAGUUAAUUUGGAUGAGUGUGAUUUUGCUGAUUGAAUGUGAGUUUUCAAAUAGGAGUCUUUUUCUGCAAUUUGUUUGCAUUUGGAAUUCUCGGGUGCCAA,6.96
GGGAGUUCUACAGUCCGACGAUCAGACCAGGCUGGGGCUGCUGCCCUCCCACACGAGGUACUGAUGGAUCCUGGUUCUAUUCUGGGUAUUUCAUCCUGCCUUCCAGAGCACCUUCUGAAGUUCACAUCGUUGGUGGAAUUCUCGGGUGCCAA,0.244
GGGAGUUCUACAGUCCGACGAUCGUUAUUGGGACUUGUAUUAUAGGUGAUGGUAUGUGAGAAUCCAGUUGGGACUCGCUGUUGCCAUCCUCUUUGUUGUAUCUGGUUUUCAUCACUAGACUCAGCAACCCUUCUGGAAUUCUCGGGUGCCAA,0.323
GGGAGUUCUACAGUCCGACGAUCGGUGUGAGCCAUUAUACCUGGCUUUCAGGUAUGUUUUCUUAAGACUGCCAUCACAAAUGUCCCGGGGCCUCCUGCAAGACAGUAAUGAAUCCAGGUUAUAGUGCCUUCGAUGGAAUUCUCGGGUGCCAA,0.242
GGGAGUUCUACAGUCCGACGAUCAGACCUGUUUUUGAAAGGACAGCACAGGAGGAGAAAAGUGACUGGGACGAUGCUUCCUCUCAUCCAAAACACAUGCAGAGUCACAUCCUCAUCCUAGUGUUUGGCAGUUUUGGAAUUCUCGGGUGCCAA,0.507
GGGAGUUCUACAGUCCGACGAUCGAGCCCAAUCUCAGGGCAGACAUUGCCAAGGUAAAGAAUGCACUCCAUGUUUAUACCAAAUUGCACAAAGUAUAGACAUUGAGGUUAAUGGAGAUUUAAGCACAAUCCUAUGGAAUUCUCGGGUGCCAA,4.39

# Series 4
# Target: Interferon regulatory factor 7, full length, phosphomimetic (IRF7, Homo sapiens, UniProt Q92985, residues 1-503, S471D/S472D/S475D/S476D/S477D/S483D/S484D/S487D)
# Technique: protein-binding microarray
# Molecule type: double-stranded DNA, one strand shown
# Matrix: in vitro
# Concentration: 2200 nM top
# Setting: 60-bp whole probe
# Added: salmon DNA 0.4 mg/ml
# Reference: random background probes
# Direction: higher = stronger binding
# All sequences stand within: GCCTAGCAC … GTCTTGATTCGCTTGACGCTGCTG
# Target sequence (chain): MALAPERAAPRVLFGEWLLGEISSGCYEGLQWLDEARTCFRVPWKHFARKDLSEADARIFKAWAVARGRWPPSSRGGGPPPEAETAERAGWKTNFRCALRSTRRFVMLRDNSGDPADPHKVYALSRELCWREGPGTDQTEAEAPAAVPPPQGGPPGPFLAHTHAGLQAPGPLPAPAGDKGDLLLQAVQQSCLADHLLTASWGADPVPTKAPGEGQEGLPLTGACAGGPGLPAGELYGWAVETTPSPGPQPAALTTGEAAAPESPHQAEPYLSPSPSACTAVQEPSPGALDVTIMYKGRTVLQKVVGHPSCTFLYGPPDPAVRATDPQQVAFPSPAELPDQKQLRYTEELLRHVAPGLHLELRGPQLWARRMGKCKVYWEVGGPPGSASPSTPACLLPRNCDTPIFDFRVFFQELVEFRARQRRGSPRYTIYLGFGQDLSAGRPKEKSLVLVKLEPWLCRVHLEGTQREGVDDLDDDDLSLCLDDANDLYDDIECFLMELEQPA
Oligonucleotide,fitted relative affinity [z-score]
CCTTTTTTTTTTTTTCTGATGTGCTAG,2.07
TGCTTTCTCTTTCATTGCTGCGTGCTA,7.69
TTAGGTCTCCTTCTCGTTTAGTGCTAG,1.26
GACGGTATCGGTCACGGGACGTGCTAG,-0.32
TCAGTTCACTATTTAAGACTGTGCTAG,1.42
TTAGGTTTCAACACTGGGTTAGTGCTA,0.147
GACGATCTCAGTTTCGAGCCGTGCTAG,2.52
TTAGACCTGGGGACTGGATTAGTGCTA,-0.649
AGTATGTTCACTATTTAAGGGTGCTAG,0.397
TCAGGTATCGGGTTTCGGTTAGTGCTA,4.31
GACGATATCGGGACTGGAGACGTGCTA,-0.0654
GACCATTTCAGTTCCGAGACGTGCTAG,1.83
GACTATTTCGGGTATCGAGACGTGCTA,2.34
GACGATTTCAGTATCGAGAGGTGCTAG,0.54
GACGAACTGGGGTTTCGGGACGTGCTA,1.11
GACGGTTTCAGTTTCGGGACGTGCTAG,8.39
TTAGGTATCGGTTTCGGTGAGTGCTAG,3.61
TTACAGATGTTTTTCATTTTGTGCTAG,2.27
TTAGGTTTCGGGGATCGGTTAGTGCTA,2.53

# Excerpt of the above (series 4):
Oligonucleotide,fitted relative affinity [z-score]
GACGATATCGGGACTGGAGACGTGCTA,-0.0654
GACCATTTCAGTTCCGAGACGTGCTAG,1.83
GACTATTTCGGGTATCGAGACGTGCTA,2.34
GACGATTTCAGTATCGAGAGGTGCTAG,0.54
GACGAACTGGGGTTTCGGGACGTGCTA,1.11
GACGGTTTCAGTTTCGGGACGTGCTAG,8.39
TTAGGTATCGGTTTCGGTGAGTGCTAG,3.61
TTACAGATGTTTTTCATTTTGTGCTAG,2.27
